Results from different studies.
A part holds a random share of what one study measured. Positions count from the first letter of the parent shown.

Sample 1 — method: aptamer microarray, sandwich; form: DNA with 2'F-ANA; sample: in vitro; tested at: 200 nM; added: Cy3 exosite-II aptamer, 400 nM; reading: higher = stronger binding; oligonucleotide: GGTTGGTGTGGTTGG
Target: Prothrombin, mature alpha-thrombin (F2, Homo sapiens, UniProt P00734)
Notes: whole 15-mer aptamer, many near background
Modification | mean fluorescence intensity
2'F-ANA at 3 4 5 6 7 9 10 11 13 15 | 65.6 a.u.
2'F-ANA at 1 6 7 9 13 | 105 a.u.
2'F-ANA at 1 4 5 6 9 15 | 56.2 a.u.
2'F-ANA at 1 2 9 11 13 | 111 a.u.
2'F-ANA at 1 2 3 5 6 9 12 14 | 46.7 a.u.
2'F-ANA at 4 5 6 10 11 12 15 | 51.6 a.u.
2'F-ANA at 3 4 5 6 9 10 11 12 | 115 a.u.
2'F-ANA at 1 2 5 9 11 12 14 | 48.7 a.u.
2'F-ANA at 1 3 5 7 9 14 15 | 47.7 a.u.
2'F-ANA at 1 2 3 5 6 8 9 12 | 134 a.u.
2'F-ANA at 1 5 8 9 15 | 63.3 a.u.
2'F-ANA at 1 7 8 9 10 13 14 15 | 49.2 a.u.
2'F-ANA at 4 5 8 9 11 12 | 130 a.u.
2'F-ANA at 2 4 5 9 11 13 14 15 | 49.2 a.u.
2'F-ANA at 1 2 5 6 8 9 10 12 14 | 50 a.u.
2'F-ANA at 1 5 6 7 8 10 11 15 | 48.8 a.u.

Sample 2 — method: RNA Bind-n-Seq; form: RNA; sample: in vitro; tested at: not given; baseline: input RNA pool; reading: higher = stronger binding
Target: RING finger protein unkempt homolog, zinc fingers 1-6, GST-SBP tag (UNK, Homo sapiens, UniProt Q9C0B0, residues 30-357)
Notes: RNA with constant flanks, human and mouse sites, ends assumed
All sequences stand within: GGGAGUUCUACAGUCCGACGAUC … CAACAGAGGAUUGAGCAUCA
Construct (chain): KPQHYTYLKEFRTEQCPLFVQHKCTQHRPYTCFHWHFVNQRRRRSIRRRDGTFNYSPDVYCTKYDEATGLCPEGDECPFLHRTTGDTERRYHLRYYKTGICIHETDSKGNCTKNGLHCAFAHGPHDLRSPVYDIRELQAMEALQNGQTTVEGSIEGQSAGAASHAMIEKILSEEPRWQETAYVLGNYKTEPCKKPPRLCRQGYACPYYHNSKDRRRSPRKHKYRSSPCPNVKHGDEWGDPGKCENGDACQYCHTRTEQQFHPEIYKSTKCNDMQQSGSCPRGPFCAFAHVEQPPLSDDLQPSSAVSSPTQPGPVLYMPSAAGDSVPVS
Oligonucleotide | bound/input enrichment [ratio]
AGGCAUACUCGUCCUCAGGUGUCAUCUGUACGGUUGAUGGAGAGGUCGAUUCACAGCGCAAGAUACAUUUUUGUAGAAAACCUGUAUAGAAGUGGGAAGAUGCCAGAAGUGGACUAUGUA | 1.04
GCAACUUGGAAAGACUAUCUUUCAAGCUUCAAUUCUUACCUGACUAAGUCUGCUGAUUUUAUAGAACAAUCUGUUUUUUACUGGGAACAGAUGACAGAUGGGUUUUUCAUUUUUGGUGAA | 0.247
UCCAUGGAUUCUGAGGUCUUGGAGAUGUCACCUGAAAAGUCAGAUGGAAUAGUGGAGGGGAUAGAUGUAAAUGGACCAAAAGCACAGCUGAUGCUGCGGUACCCAGAUGGAAAAAGGGAA | 0.82
CAUUCUAGGCCAAGUGAGAGCUCGUCAGUUCCUUGGGAUAUCUCCAGCUCUAAGGAGGACAGUUUAUCCACAGUUGAAGAGGAGUCUGACUGCAAAUCUCCGUCAGCUGAUGACAAAGGG | 0.149
AUUUUUGCAAGUUUGGCUUUAUAUGAUGUCAAGGAGAAGAAAAAGAUUUCCGAGAAUUUUUAUUUCGACCUUAAUUCAGAGCAGAUGAAGGGACUGUUACGACCGCAUGUGCCCCCUGCU | 0.16
CCAGACUCUACAACUGGAUUUCCUGAUGAAGAUCUUGCCCAAUUACCACCACCUGAAGAAGACGAUGAAAGGCAGCUCAACCCCAGUUAAGAACUGAGAAGAUGUCAGUGGUGCUCGGUU | 0.412
GUUCAGACUUUGUACUCUCAGUCACCAGCCCUAGAAUUAGACAAAUUCCUUGAAGAUGUCAGGAAUGGGAUCUACCCUCUGACAGCCUUUGGGCUACCUCGGCCUCAGCAGCCACAGCAG | 1.53
ACUUUUGCGGAUGAGUUGGUGGAGCUCAGCACAGCCCUGGAGCACCAGGAAUAUAUCACCUUUCUUGAGGACCUCAAAAGCUUUGUCAAGAACCAGUAGAACUCAGAGACUGCGGGCCUU | 0.338
UGUCUCAGGAUGGCAGCACACAGCUCAGAUUCAUGUCUUGAGCCAAACAAGUGAAUGUAUCUGAGAAGACUCAGUACCACAUGGUACUGGGAGAUCUUACUCACUUCAGCUGGCGUUGCU | 0.199
AGUCCAAGCACAGUUGGAGUGACCAAGAUGACUCUGGGAACACCUCCCACUUUGCCAAACUUCAAUGCUUUGAGUGUUCCUCCUGCUGGUGCAAAGCAGACCCAACAAAGACCCACAGAU | 0.0707
CCACUAUCAGAAACAGAAAUGGCUCUGGGCAAGGAUGUGACUCCACCUCCAGAAACAGAAGUAGUUCUCAUCAAGAACGUAUGUCUGCCUCCAGAAAUGGAGGUGGCCCUGACUGAGGAU | 0.0856

Sample 3 — target: CCNB3, cyclin fold, Cln2 fusion (human); method: yeast growth competition, sequencing; sample: yeast; notes: strong parent motif; baseline: not given; reading: higher = stronger binding
Starting sequence: RBL2 docking peptide (human); STTRRRLFVENDS
Substitution | normalised enrichment score
STTRRRLFRENDS [V9R] | 0.543
RTTRRRLFVENDS [S1R] | 1.18
STTPRRLFVENDS [R4P] | 0.631
STTRRRLFVENES [D12E] | 0.386
STTRRGLFVENDS [R6G] | 0.0849
STTSRRLFVENDS [R4S] | 0.197
SGTRRRLFVENDS [T2G] | 1.24
STTYRRLFVENDS [R4Y] | 0.683
STTRRRNFVENDS [L7N] | -0.191
VTTRRRLFVENDS [S1V] | 1.03
STTRRRLFVENYS [D12Y] | 0.909
STTRRRLFVRNDS [E10R] | 0.209
STTRRRLFVETDS [N11T] | 0.836
STTRRRLFVEVDS [N11V] | 0.754
STTRRRLFVNNDS [E10N] | 0.597
STTRRRLFVENDP [S13P] | 1.8
STTRRRAFVENDS [L7A] | 0.623
LTTRRRLFVENDS [S1L] | 1.27
STTRWRLFVENDS [R5W] | 0.0145
STTRRRLFVELDS [N11L] | 0.63
STTRRRLVVENDS [F8V] | -0.367
STTRRRLFVDNDS [E10D] | 1.73
STTRRRLFIENDS [V9I] | 0.783
STTFRRLFVENDS [R4F] | 1.37
STTRMRLFVENDS [R5M] | 0.239

Sample 4 — method: competition protein-binding microarray; form: double-stranded DNA, one strand shown; sample: in vitro; tested at: 2 µM; added: Pho4 competitor, 0.05 µM; reading: higher = stronger binding; all sequences stand within: … GTCTTGATTCGCTTGACGCTGCTG
Target: Centromere-binding protein 1, full length, His-tagged (CBF1, Saccharomyces cerevisiae, UniProt P17106, residues 1-351)
Sequence of UniProt P17106 (whole entry, looked up): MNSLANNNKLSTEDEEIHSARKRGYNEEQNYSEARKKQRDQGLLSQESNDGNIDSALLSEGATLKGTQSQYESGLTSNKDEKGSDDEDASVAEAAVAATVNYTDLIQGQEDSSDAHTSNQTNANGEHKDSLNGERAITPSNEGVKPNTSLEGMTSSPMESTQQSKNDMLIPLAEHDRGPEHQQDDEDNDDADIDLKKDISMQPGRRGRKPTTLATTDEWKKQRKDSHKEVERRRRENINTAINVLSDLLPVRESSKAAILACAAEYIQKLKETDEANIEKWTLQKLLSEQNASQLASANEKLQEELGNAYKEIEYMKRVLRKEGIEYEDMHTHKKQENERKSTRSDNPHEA
Notes: whole 60-bp probe, lowest competitor level
Oligonucleotide | fluorescence intensity [a.u.]
CCGACCTTAGAATTTCACGTGTAGGTACACTCAAAA | 648
GTCTTATCTTTAGTGTGCGTGCAAACTGACTCATCG | 102
AGGAAGCTGATAAGCAACGTGGTGATGAACAGTATG | 92.2
CGGGGTTAAGTTTGGGCGGTGGGTGGCTTGCAGCAG | 74.5
CGTCCTAGTGATTGGCGGGTGGGTGCCATGAGGAAG | 69.6
CGGGGTTAAGTTTTTCACGTGCAGTGCTTGCAGCAG | 563
CACTGTTCTTTAAAGCACGTGCTTTTGGTACCAACC | 3410
GCAAGTCGACACAGCAACGTGTGGATAATGGATGAG | 85.3
AAATTACTAAGTTGTCACTGGACTTACCCCGTATGA | 102
CTTTCCCGATCTTGTCACGTTACTTTAGCACATTTG | 1060
TCTTCTAGGAATTAGCACGTGTTTTGGTAACGCACC | 3250
CAAACTGAGACCTTCCACGTTGTGGGCACCACCACT | 61.9
TCGATGGCCATGTTACACATGGACATAAGTGCTTCC | 85
TTCCAGAAATTGGTGTTTGTGATGCTTGATGCTCTC | 64.5
CTAACGAAGGTTTGTAACGTGGGTGACAAGCCAAGT | 89
CATACCCAACCTTGTTCCGTGGGTGAAGATATTTGT | 69.5
TGCGTAAAAAAAAGACACATGTGAGACGCAGGAAAA | 187
AACAAGAAGATCCATCACGTGCTTTGAAAAAAAATA | 7530
CATACCCAACCTTGACTAGTGGGTGAAGATATTTGT | 66.9
CTTCTGTAAATTTAGCACGTGTTTTGACGCGCCCCG | 2920
ATTTCCGGGACGAGTCACGCTGTTATCAATGACTTT | 294
TTACTTTTAATCGATGACATGATAAGTTTCTTTTGA | 74.3
TGCGCAACAACTTGTCACTCTACTTTATGTCTAGAA | 78.9

Sample 5 — method: RNA Bind-n-Seq; form: RNA; sample: in vitro; tested at: 365 nM; baseline: no-protein control; reading: higher = stronger binding
Target: RNA binding protein fox-1 homolog 2, RRM domain, GST-SBP tag (RBFOX2, Homo sapiens, UniProt O43251-10, residues 100-194)
Notes: natural RNA segment, single round, ends assumed
All sequences stand within: GGGAGUUCUACAGUCCGACGAUC … UGGAAUUCUCGGGUGCCAA
Residues (chain): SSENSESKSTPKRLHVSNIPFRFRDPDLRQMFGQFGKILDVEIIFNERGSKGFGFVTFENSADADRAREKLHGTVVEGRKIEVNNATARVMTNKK
Oligonucleotide | RBNS enrichment (R)
UGAGAAAGUGGACUUAACCGAAAUGGAACCAACUGACAUUCUAUCGUGUUGUACAUAGAAUGAUGAAGGGUUCCACUGUUGUUGUAUGUCUUAAAUUUAUUUAAAACUUU | 0.465
UGUUCUGGGUGGGGCUUUGCCUCUCCACUGGGAAACUGACUUUUGCUGGGUUGAACAGAGUCCCUUAUGCUUUUUGUCCUCUCCCUGCGCCUGGGAGAGGUGGGAGUAGG | 0.26
UUCUCUUAGAUCACAUUUAGUAGCAUAACUGUAGGGACUAUUAGAGAUGGCAUCUCAUCGAUGAGAGAGAAUCACAAUCAGAAUGGAAGCACUUUGAGUAUCUGAAGAGU | 0.728
UCUUCCUACAGGGAAGAAGAGCAACCCUCAGCAGCCCUCUUGCCCCUCCAUGGGGUGAAGCCACACUCAGUGGGUGUGUCACUUCAGGCUCUGUGGGCUGUGCUCAGUCU | 0.205
CAUCCCUCCCAGCAGCUCCCCUUCCACCCCCCGGGGAACUGAAGAUUGUCCUGGCCGCGACCUGAGACCUCCAUGAGUGGAGGGAAGAGUGAUCUAUGUCUCUUCCCCCC | 0.453
ACCAAUGGAUGAGGGGGGUGGCCACAGGAGAUGGGGAGAGGAGUCUGAACUAAACCCCUGGCUUUUGUGCACACUGCAUACGUUUCAGAACUCCUGGAUGGUAACCAUCU | 1.02
UAGUUUCAGCGUUAGAUAAAGUUUUUCCACCAUACAUCUUUAGGUGCAUUCAUCUUUAGGUGACUGAAUGUUAAGAAAUCUGUGUGCAUAGUUACUAAGUUUUUAUGAAC | 0.33
GCGUGCCCACAGUGGCCGGGCCAUGGCUUAGGCUUCCCUCAUGGUCACUUUGCCCAUUACGUCAGAAGUAAGUGUCUGGGUGUGGUAGUAUAAGUUUCUUAAGGAAUUGU | 0.268
AUGGCCCAGCAGGCAGGCACUGUGGCCCUUCUGUCCACCAGACCCACCUGGAGCCCGCUUCAAGCUCUCUGUUGCGCUCCCGCAUUUCUCAUGCUUCUUCUCAUGGGGUG | 0.208
CUCCCGCCUCGAGCGCAUUGAGUCCACAGAAAUCUGAUCGACCUGGGCACUCGGCAUUUUGACACAUGUCCUGUCAAAAGGCCAGAGUCCCCAGUGUCCCCUCCCCUCCA | 0.314
GUCCUCACACUCCUGGAUCACUGAGCAGAAUGAACAUUUUCUCCAGCCUCUGAGACUAUCGCUCUUAACCAUGGAAAAGCUCAAAAUAUUCUUGCCAUUACUCAGUGUUC | 0.465
CUGCCUCUCACAGGUACAGCUGUUUCUUGGAAAUCCUCCAACCAAAUAGCAGUUUUCCUAACUUGAUUAGCUUGAGCUGACAGACUGUUAGAAUACAGUUCUCUGGCCAC | 0.208

Repeated from above (sample 4):
Oligonucleotide | fluorescence intensity [a.u.]
CGTCCTAGTGATTGGCGGGTGGGTGCCATGAGGAAG | 69.6
TTCCAGAAATTGGTGTTTGTGATGCTTGATGCTCTC | 64.5
CATACCCAACCTTGTTCCGTGGGTGAAGATATTTGT | 69.5
CTTTCCCGATCTTGTCACGTTACTTTAGCACATTTG | 1060
CATACCCAACCTTGACTAGTGGGTGAAGATATTTGT | 66.9
CGGGGTTAAGTTTTTCACGTGCAGTGCTTGCAGCAG | 563
TCGATGGCCATGTTACACATGGACATAAGTGCTTCC | 85
TGCGTAAAAAAAAGACACATGTGAGACGCAGGAAAA | 187
AACAAGAAGATCCATCACGTGCTTTGAAAAAAAATA | 7530
AAATTACTAAGTTGTCACTGGACTTACCCCGTATGA | 102
TTACTTTTAATCGATGACATGATAAGTTTCTTTTGA | 74.3
GTCTTATCTTTAGTGTGCGTGCAAACTGACTCATCG | 102
